Experimental data pooled from the literature.
Parts stem from different laboratories: compare values within a part only. Positions count from the first letter of the parent shown.

Set 1 — technique: protein binding microarray; molecule type: double-stranded DNA, one strand shown; medium: in vitro; concentration: not given; baseline: not given; reading: higher = stronger binding
Target: Histone acetyltransferase KAT6A, winged helix 2, GST fusion (KAT6A, Homo sapiens, UniProt Q92794, residues 85-181)
Setting: 8-mer, flanks averaged, mean of 2 arrays, mostly near background
Target sequence (chain): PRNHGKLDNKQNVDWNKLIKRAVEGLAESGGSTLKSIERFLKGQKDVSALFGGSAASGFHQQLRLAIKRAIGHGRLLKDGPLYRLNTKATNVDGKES
With `ACGTAACG` the E-score was -0.246.
With `CTCAATTA` the E-score was -0.0794.
With `GGACGAAC` the E-score was 0.177.
`GTGCCCAA` has an E-score of 0.16.
For `CAACCTGG`, the E-score was 0.0511.
For `ACAACGAT`, the E-score was 0.0688.
`ATAGCGTG` has an E-score of -0.162.
With `ATCTGAAC` the E-score was 0.0437.
`ATAGGCGC` gave an E-score of -0.0601.
`ACAGCCAA` gave an E-score of 0.136.
For `CACCGGTC`, the E-score was -0.0549.
With `ACACCACG` the E-score was -0.123.
With `ACGCCAAT` the E-score was 0.0178.
`ACCATTGC` has an E-score of -0.0309.
The E-score of `ACAATACG` is reported as -0.131.
`GAGTCCGC` gave an E-score of -0.00864.
The E-score of `GATAAAGA` is reported as -0.0057.
`CCGTGATC` gave an E-score of 0.0596.
With `CGACAACC` the E-score was 0.00328.
`CCTTCAGC` gave an E-score of -0.0681.
With `GCGGCTCC` the E-score was -0.0315.
The E-score of `GCCTATCA` is reported as 0.0207.
For `GATATCGA`, the E-score was 0.0678.
`CCGGCCAA` has an E-score of 0.0595.
For `GTTATTTA`, the E-score was -0.0107.

Set 2 — technique: RNA Bind-n-Seq; molecule type: RNA; medium: in vitro; concentration: 200 nM; setting: whole 134-nt RNA, ends assumed; together with: 150 mM LiCl; baseline: input library; reading: higher = stronger binding; each molecule: 7-deaza-guanosine replaces G
Target: Ras GTPase-activating protein-binding protein 1, full length (G3BP1, Homo sapiens, UniProt Q13283)
UniProt Q13283, sequence (whole entry, looked up): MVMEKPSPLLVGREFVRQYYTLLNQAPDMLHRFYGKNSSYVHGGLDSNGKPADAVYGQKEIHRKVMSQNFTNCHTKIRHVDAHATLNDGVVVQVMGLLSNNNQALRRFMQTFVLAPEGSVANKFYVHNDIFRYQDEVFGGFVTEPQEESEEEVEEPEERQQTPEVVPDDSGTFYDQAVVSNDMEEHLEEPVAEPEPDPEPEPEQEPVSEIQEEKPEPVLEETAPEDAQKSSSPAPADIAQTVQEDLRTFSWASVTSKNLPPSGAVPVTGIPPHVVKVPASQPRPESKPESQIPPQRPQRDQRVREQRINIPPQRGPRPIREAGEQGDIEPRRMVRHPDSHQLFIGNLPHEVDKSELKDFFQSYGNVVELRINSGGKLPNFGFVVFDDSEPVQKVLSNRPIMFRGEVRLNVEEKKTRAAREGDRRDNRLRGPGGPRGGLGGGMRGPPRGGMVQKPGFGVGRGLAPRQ
Constant ends, left off below: GGGAGUUCUACAGUCCGACGAUC … UGGAAUUCUCGGGUGUCAAGG
With `UGGCAGCGGCCAUGGACCGCUUCGUUUGGACCAGCGGCCUCCUGGAGAUCAACGAGACCCUGGUGAUCCAGCAGCGCGGGGUGCGAAUCU` the log2 enrichment was -0.988.
The log2 enrichment of `UGGCCCUGGUGGCAUGCGGGGAGGAAGAGGUGGCCUCAUGGAUCGUGGUGGUCCCGGUGGAAUGUUCAGAGGUGGCCGUGGCGGAGACAG` is reported as -0.11.
For `UGUGCUACACAUCGUAUGUACCGAAUCGGGCCCCCCCGGGGCCCCCCCGGGCCCCCCCGGGGAAAGUAUUAUGUUACGCCGUUCGGAUCU`, the log2 enrichment was -0.9.
With `UUGAAAGAAUUUGCCAACUUUGACUUUGAUGUCUGGAGGAAAAAGUAUAUGCGUUGGAUGAAUCACAAAAAGUCUCGAGUGAUGGAUUUC` the log2 enrichment was -3.11.
`UUGUCUUCUGAGAUGUUGGGCCCCUCUUGGGAUGGAGAUGAAGCAGAAUCCACUGGUGAAAUCAUUAGACUUGGAGACACAGCACACACC` has a log2 enrichment of 0.146.
The log2 enrichment of `UCUCAGCACCCUCGUGAAACUGGACAAGAAGCCAGUGGAGACCAACGGUCCUGAUGCCAAUCACGAGUACAGUACAAGCAGCCAGCAUAU` is reported as -0.237.
For `GUCCUGUGCUACACAUCGUAUGUACCGAAUCGGGGAAAAAGGGGAAAAAGGGGAGGGGAAAGUAUUAUGUUACGCCGUUCGGAUCUGCAC`, the log2 enrichment was 0.0966.
`CAAGUCCUGUGCUACACAUCGUAUGUACCGAAUCGGUUUUGGGUUUUGGGUUUUGGAAAGUAUUAUGUUACGCCGUUCGGAUCUGCACUU` gave a log2 enrichment of -1.09.

Set 3 — target: CCND1, cyclin fold, Cln2 fusion (human); technique: yeast growth competition, sequencing; medium: yeast; setting: weak parent motif; baseline: not given; reading: higher = stronger binding
Starting sequence: BRCA2 docking peptide (human); PSIKRNLLNEFDR; partner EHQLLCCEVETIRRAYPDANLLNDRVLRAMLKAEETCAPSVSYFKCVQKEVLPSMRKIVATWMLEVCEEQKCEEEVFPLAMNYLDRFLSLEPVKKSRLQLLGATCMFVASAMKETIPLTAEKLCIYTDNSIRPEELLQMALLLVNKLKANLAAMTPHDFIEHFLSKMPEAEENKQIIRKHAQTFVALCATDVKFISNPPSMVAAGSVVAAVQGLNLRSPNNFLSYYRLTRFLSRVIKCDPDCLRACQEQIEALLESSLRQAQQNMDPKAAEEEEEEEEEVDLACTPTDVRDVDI
For `R5K F11L`, “normalised enrichment score” read -0.395.
Under “normalised enrichment score”, `D12E` is recorded as 0.467.
For `S2K`, “normalised enrichment score” read 0.785.
`K4V`: “normalised enrichment score” 0.352.
`F11K`: “normalised enrichment score” -0.48.
`F11S` — result for “normalised enrichment score”: -0.625.
For `I3M`, “normalised enrichment score” read -0.361.
Under “normalised enrichment score”, `N9Q` is recorded as 0.36.
`E10Q`: “normalised enrichment score” 0.0687.
For `L8S`, “normalised enrichment score” read 0.797.
`E10C` — result for “normalised enrichment score”: 0.167.
`L8H`: “normalised enrichment score” 0.124.
For `N9L`, “normalised enrichment score” read 0.728.
`R13H` — result for “normalised enrichment score”: 0.291.
For `P1D`, “normalised enrichment score” read 0.54.
For `K4A`, “normalised enrichment score” read 1.01.
Under “normalised enrichment score”, `K4S` is recorded as 0.492.
For `L7F`, “normalised enrichment score” read -0.296.
`N9R`: “normalised enrichment score” 0.559.
For `L7T`, “normalised enrichment score” read 0.411.
Under “normalised enrichment score”, `L8E` is recorded as 0.339.
For `E10Y`, “normalised enrichment score” read 1.31.
For `N9I`, “normalised enrichment score” read 1.06.
Under “normalised enrichment score”, `N6W` is recorded as 0.604.
For `N6A`, “normalised enrichment score” read -0.062.

Single results of other studies
For `PhoQ, residues 284 288 289 292 302 303 NLCILV`, the fold induction was 1.2 (PhoP, residues 12 14 15 18 19 AWHSL (Escherichia coli, UniProt P23836); Sort-seq, measured: YFP reporter; E. coli; PhoQ-PhoP variant library, together with: 10 µM Mg2+; baseline: high Mg2+ state, higher = stronger signaling).
